Earlier results that unrelated publications cite.
± gives the spread as reported. Values after ≈ are worked out from the molar mass of the structure shown.
Chain of UniProt P51817 (whole entry, looked up): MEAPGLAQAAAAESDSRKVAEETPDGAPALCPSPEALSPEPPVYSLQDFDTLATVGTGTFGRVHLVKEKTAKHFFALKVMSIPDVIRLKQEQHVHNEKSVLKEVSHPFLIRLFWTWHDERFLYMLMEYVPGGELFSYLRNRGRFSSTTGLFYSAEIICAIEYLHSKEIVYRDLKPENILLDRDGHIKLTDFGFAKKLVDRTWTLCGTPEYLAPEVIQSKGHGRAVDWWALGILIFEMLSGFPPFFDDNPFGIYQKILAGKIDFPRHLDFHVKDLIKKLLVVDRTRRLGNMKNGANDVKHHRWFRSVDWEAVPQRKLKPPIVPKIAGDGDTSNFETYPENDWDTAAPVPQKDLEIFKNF
Chain of UniProt Q8WTS6 (whole entry, looked up): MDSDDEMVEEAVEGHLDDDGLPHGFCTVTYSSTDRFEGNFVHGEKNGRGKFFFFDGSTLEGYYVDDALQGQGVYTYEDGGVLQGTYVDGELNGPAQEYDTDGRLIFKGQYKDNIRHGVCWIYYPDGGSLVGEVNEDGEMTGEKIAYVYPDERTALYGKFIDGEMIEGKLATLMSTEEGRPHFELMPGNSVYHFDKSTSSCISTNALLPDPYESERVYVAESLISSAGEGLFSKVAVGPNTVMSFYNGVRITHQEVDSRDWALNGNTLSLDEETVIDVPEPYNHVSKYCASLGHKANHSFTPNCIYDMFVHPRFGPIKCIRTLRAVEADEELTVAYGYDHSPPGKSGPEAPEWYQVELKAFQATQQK
Chain of UniProt P42336 (whole entry, unmodified, looked up): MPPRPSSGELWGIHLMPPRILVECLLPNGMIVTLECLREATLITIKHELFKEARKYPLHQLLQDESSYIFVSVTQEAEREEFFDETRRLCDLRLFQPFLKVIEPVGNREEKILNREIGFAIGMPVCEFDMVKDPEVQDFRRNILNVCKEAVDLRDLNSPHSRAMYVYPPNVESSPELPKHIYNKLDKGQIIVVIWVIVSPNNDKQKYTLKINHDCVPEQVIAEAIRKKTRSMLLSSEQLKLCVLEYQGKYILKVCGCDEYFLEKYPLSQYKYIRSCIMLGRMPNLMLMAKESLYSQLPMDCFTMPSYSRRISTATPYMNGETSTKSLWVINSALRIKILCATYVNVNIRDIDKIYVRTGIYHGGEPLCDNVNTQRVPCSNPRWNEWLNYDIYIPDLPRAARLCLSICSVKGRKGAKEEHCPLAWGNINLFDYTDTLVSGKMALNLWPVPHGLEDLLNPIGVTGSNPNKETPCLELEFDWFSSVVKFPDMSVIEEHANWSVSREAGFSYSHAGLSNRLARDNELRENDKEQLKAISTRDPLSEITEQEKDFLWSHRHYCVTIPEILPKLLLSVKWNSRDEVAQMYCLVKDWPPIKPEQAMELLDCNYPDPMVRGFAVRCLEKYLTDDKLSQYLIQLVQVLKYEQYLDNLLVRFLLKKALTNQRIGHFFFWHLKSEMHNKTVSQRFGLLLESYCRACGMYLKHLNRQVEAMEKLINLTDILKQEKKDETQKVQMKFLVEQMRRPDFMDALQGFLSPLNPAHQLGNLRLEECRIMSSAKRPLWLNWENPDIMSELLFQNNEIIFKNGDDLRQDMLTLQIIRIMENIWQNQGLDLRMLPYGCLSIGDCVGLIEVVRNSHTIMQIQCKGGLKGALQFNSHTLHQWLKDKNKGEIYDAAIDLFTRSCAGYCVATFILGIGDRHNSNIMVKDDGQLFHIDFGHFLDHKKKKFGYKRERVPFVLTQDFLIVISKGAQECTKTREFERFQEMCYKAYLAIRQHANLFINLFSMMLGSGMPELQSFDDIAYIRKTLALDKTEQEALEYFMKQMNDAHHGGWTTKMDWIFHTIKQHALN
Chain of UniProt P23458 (whole entry, looked up): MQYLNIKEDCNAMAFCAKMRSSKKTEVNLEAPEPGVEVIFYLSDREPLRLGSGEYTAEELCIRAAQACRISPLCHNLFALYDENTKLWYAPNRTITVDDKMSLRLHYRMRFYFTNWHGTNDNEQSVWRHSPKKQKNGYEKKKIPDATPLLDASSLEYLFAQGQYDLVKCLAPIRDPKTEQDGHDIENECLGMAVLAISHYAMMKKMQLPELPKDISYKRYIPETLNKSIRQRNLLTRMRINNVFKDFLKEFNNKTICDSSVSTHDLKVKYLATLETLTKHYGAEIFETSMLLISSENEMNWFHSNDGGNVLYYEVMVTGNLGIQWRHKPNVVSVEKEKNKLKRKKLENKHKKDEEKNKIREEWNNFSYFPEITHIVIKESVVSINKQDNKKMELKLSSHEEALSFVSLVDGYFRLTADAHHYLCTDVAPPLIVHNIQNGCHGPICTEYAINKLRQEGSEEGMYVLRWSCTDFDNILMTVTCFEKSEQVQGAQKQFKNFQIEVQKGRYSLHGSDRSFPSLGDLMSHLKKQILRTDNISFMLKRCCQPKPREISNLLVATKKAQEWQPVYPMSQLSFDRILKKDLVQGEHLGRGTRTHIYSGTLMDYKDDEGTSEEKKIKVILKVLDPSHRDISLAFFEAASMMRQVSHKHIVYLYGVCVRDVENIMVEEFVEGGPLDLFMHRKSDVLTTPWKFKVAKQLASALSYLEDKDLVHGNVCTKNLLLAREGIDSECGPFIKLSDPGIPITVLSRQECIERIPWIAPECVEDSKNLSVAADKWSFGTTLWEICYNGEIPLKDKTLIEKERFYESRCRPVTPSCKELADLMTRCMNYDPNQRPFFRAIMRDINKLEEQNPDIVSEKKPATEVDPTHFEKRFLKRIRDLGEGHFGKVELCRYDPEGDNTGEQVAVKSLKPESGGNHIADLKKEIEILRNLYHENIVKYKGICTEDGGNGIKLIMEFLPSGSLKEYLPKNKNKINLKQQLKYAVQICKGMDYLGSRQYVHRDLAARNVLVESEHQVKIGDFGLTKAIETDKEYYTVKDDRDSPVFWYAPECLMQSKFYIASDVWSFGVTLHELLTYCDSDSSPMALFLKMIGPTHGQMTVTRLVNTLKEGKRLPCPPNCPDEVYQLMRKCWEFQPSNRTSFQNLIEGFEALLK

Structure (SMILES) = Cc1cc(NC(=O)c2cccc(NC(=O)/C=C/CN(C)C)c2)ccc1Nc1nccc(-c2cccnc2)n1; tested on = PRKX (Homo sapiens, UniProt P51817); assay = enzyme activity, inhibitor; setting = 1 µM; scale = baseline: vehicle; endpoint = remaining activity; value = 0%
Structure (SMILES) = FC(F)(F)c1ccc(Nc2nc(N3CCN(C4CCCC4)CC3)nc3c2CCN(c2ncccc2C(F)(F)F)CC3)cc1; tested on = TRPV1; assay = calcium flux, antagonist; system = HEK293; setting = added: capsaicin; endpoint = IC50; value = 0.015 µM
Structure (SMILES) = COc1ccccc1Oc1cccc(CN2CCC(NC(=O)C3CC(=O)Nc4ccccc43)CC2)c1 (stereo not shown); tested on = human CCR8; assay = IP accumulation, agonist; endpoint = EC50; value = > 10 µM
Structure (SMILES) = CC(C)(C(=O)O)c1ccc(Nc2ncnc3sc(Nc4c(Cl)cccc4Cl)nc23)cc1; tested on = TRPV1; assay = calcium flux, antagonist; system = HEK293; setting = added: capsaicin; endpoint = IC50; value = 0.031 µM
Structure (SMILES) = CC1(C)S[C@@H]2[C@H](NC(=O)[C@H](N)c3ccccc3)C(=O)N2[C@H]1C(=O)O; tested on = Enterobacter cloacae; system = clinical isolate RKI-No_136/15; endpoint = MIC; value = > 16 µg/mL
Structure (SMILES) = COc1ccccc1Oc1cccc(CN2CCC3(CC2)C(=O)NCN3CCc2ccccc2)c1; tested on = human CCR8 H283A mutant (TM7); assay = IP accumulation, agonist; endpoint = EC50; value = 0.024 µM
Structure (SMILES) = Cc1c(C#N)cccc1[C@@H](C)Nc1nnc(C)c2cnc(N3CCOCC3)cc12; tested on = ASPC1; assay = ERK phosphorylation, In-Cell Western, item: phospho-ERK; endpoint = IC50; value = > 1 µM
Structure (SMILES) = CN(C)C(=O)c1cc2cnc(Nc3ccc(N4CCNCC4)cn3)nc2n1C1CCCC1; system = human; setting = 600 mg single dose, added: rifampicin 600 mg daily for 14 days; scale = baseline: compound alone; endpoint = decrease in Cmax; value = 81%
Structure (SMILES) = O=C(NCc1ccc(C(F)(F)F)cc1)Nc1cccc2ccc(O)cc12; tested on = TRPV1; assay = calcium flux, antagonist; system = HEK293; setting = added: capsaicin; endpoint = IC50; value = 0.004 µM
Structure (SMILES) = COc1ccccc1Oc1cccc(CN2CCC(NC(=O)C(CCN3CCCC3)c3ccccc3)CC2)c1 (stereo not shown); tested on = human CCR8 K195A mutant (TM5); assay = IP accumulation, agonist; endpoint = EC50; value = 0.002 µM
Structure (SMILES) = Nc1cc(C(F)(F)F)c(-c2nc(N3CCOCC3)nc(N3CCOCC3)n2)cn1; tested on = DLD-1; endpoint = GI50; value = 1.33 µM
Structure (SMILES) = Cc1nc(NC(=O)N2CCC[C@H]2C(N)=O)sc1-c1ccnc(C(C)(C)C(F)(F)F)c1; tested on = Tyrosine-protein kinase JAK1, JH2 pseudokinase domain (JAK1, Homo sapiens, UniProt P23458); assay = KinomeScan competition binding; setting = 10 µM; endpoint = remaining binding; value = 100%
Structure (SMILES) = O=C(Nc1nc2ccccc2[nH]1)c1ccccc1; tested on = luciferase; setting = 10 µM, PubChem AID 1006; endpoint = response; value = 88%
Structure (SMILES) = CC(C)(C)c1ccc(CNC(=O)Nc2cccc3cnccc23)cc1; tested on = TRPV1; assay = calcium flux, antagonist; system = HEK293; setting = added: capsaicin; endpoint = IC50; value = 0.003 µM
Structure (SMILES) = CCN(c1cc(-c2ccc(CN3CCOCC3)cc2)cc(C(=O)NCc2c(C)cc(C)[nH]c2=O)c1C)C1CCOCC1; tested on = SETD7 (Homo sapiens, UniProt Q8WTS6); assay = enzyme activity, inhibitor; setting = 1 µM; endpoint = inhibition; value = 4 ± 3%
Structure (SMILES) = O=C1Cc2cc(CCN3CCN(c4nsc5ccccc45)CC3)c(Cl)cc2N1; tested on = HepG2; assay = mitochondrial membrane potential; setting = concentration not given, Tox21; endpoint = activity outcome; value = inactive
Structure (SMILES) = CNC(C)C1CCC(N)C(OC2C(N)CC(N)C(OC3OCC(C)(O)C(NC)C3O)C2O)O1 (stereo not shown); tested on = Klebsiella pneumoniae; system = clinical isolate RKI-No_544/13; endpoint = MIC; value = 4 µg/mL (≈ 8.38 µM)
Structure (SMILES) = O=C(NCC(Cc1cccc(C(F)(F)F)c1)c1ccc(F)cc1)Nc1cccc2cnccc12 (stereo not shown); tested on = TRPV1; assay = calcium flux, antagonist; system = HEK293; setting = added: capsaicin; endpoint = IC50; value = 0.019 µM
Structure (SMILES) = C=CC(=O)N1CCC(C(=O)NCC(=O)N2CCN(c3nc(-c4cnc(N)nc4C(F)F)nc(N4CCOCC4)n3)CC2)CC1; tested on = PIK3CA (Homo sapiens, UniProt P42336, E545A); assay = kinase activity; setting = 1 µM; endpoint = remaining activity; value = 0.5%
Structure (SMILES) = CC(C)(O/N=C(\C(=O)N[C@@H]1C(=O)N2C(C(=O)[O-])=C(C[n+]3ccccc3)CS[C@H]12)c1csc(N)n1)C(=O)O; tested on = Escherichia coli; system = clinical isolate RKI-No_317/16; endpoint = MIC; value = ≤ 2 µg/mL
Structure (SMILES) = CCNS(=O)(=O)c1ccc(OC)cc1C1(O)CCN(Cc2cccc(Oc3ccccc3OC)c2)CC1; tested on = human CCR8 F84A mutant (TM2); assay = IP accumulation, agonist; endpoint = EC50; value = 0.012 µM
Structure (SMILES) = C[C@H]1COCCN1c1nc(-c2cnc(N)cc2C(F)F)nc(N2CCOCC2)n1; tested on = Daoy; endpoint = GI50; value = 0.366 µM

For quick reference, copied from above:
Structure (SMILES) = CNC(C)C1CCC(N)C(OC2C(N)CC(N)C(OC3OCC(C)(O)C(NC)C3O)C2O)O1 (stereo not shown); tested on = Klebsiella pneumoniae; system = clinical isolate RKI-No_544/13; endpoint = MIC; value = 4 µg/mL (≈ 8.38 µM)
Structure (SMILES) = O=C(NCC(Cc1cccc(C(F)(F)F)c1)c1ccc(F)cc1)Nc1cccc2cnccc12 (stereo not shown); tested on = TRPV1; assay = calcium flux, antagonist; system = HEK293; setting = added: capsaicin; endpoint = IC50; value = 0.019 µM
Structure (SMILES) = C=CC(=O)N1CCC(C(=O)NCC(=O)N2CCN(c3nc(-c4cnc(N)nc4C(F)F)nc(N4CCOCC4)n3)CC2)CC1; tested on = PIK3CA (Homo sapiens, UniProt P42336, E545A); assay = kinase activity; setting = 1 µM; endpoint = remaining activity; value = 0.5%
